Assay results pooled from the literature.
± gives the spread as reported.

`Cn1ncnc1[C@H]1c2n[nH]c(=O)c3cc(F)cc(c23)N[C@@H]1c1ccc(F)cc1` gave an AUC of 723 ng·h/mL (female FVB Abcb1/Abcg2 knockout mice, plasma; oral, 0.5 mg/kg, 0 to 4 h, no novobiocin pretreatment).
For `OCCc1ccc(O)c(O)c1`, the AUC was 0.021 ± 0.002 nmol·min/g (C57BL/6J obese male mice, brain; oral, 200 mg/kg, 0 to 12 h).
The AUC of `c1ccc2c(c1)cc1ccc3cccc4ccc2c1c34` is reported as 120 ± 5 ng·h/mL (male ApcMin/+ mice, plasma; oral gavage, 100 µg/kg, together with: RVT 45 µg/kg).
For `CN1CCN(c2ccc(Nc3ncc4cc(C#N)c(=O)n(C5CCCC5)c4n3)cc2)CC1`, the AUC was 19800 ng·h/mL (NIH Swiss nude mice, intracerebral U87 tumour, brain; intravenous, 25 mg/kg, together with: gefitinib 200 mg/kg oral 1 h before).
`CC[C@H](C)[C@@H]1NC(=O)[C@H](Cc2ccc(O)cc2)NC(=O)[C@@H](N)CSSC[C@@H](C(=O)N2CCC[C@H]2C(=O)N[C@@H](CC(C)C)C(=O)NCC(N)=O)NC(=O)[C@H](CC(N)=O)NC(=O)[C@H](CCC(N)=O)NC1=O`: “AUC above baseline” 206 ± 45 pg·30 min/sample (microdialysis, radioimmunoassay; C57BL/6J male mice, wild type, amygdala extracellular fluid; intranasal, 12 µg, incremental area over baseline).
For `CC(=O)C=Cc1ccc(O)c(O)c1`, the AUC was 0.15 ± 0.012 nmol·min/g (C57BL/6J obese male mice, brain; oral, 200 mg/kg, 0 to 12 h).
`CCCC1O[C@@H]2C[C@H]3[C@@H]4CCC5=CC(=O)C=C[C@]5(C)[C@H]4[C@@H](O)C[C@]3(C)[C@]2(C(=O)CO)O1` (stereo partly drawn) gave an AUC of 0.038 µM·h (CD1 mice, plasma; subcutaneous, 0.2 mg/kg).
`Oc1ccc(C=Cc2cc(O)cc(O)c2)cc1` has an AUC of 100 ± 10 ng·h/mL (male ApcMin/+ mice, plasma; oral gavage, 45 µg/kg, together with: BaP 100 µg/kg).
With `Cc1cc(-c2cc(OC(=O)c3ccccc3)ccc2Cl)cc2nnc(Nc3ccc(OCCN4CCCC4)cc3)nc12` the AUC was 8.13 µM·h (C57BL/6 mice, sclera and choroid; topical ocular, 1 %, 0 to 24 h).

For quick reference, copied from above:
`Oc1ccc(C=Cc2cc(O)cc(O)c2)cc1` has an AUC of 100 ± 10 ng·h/mL (male ApcMin/+ mice, plasma; oral gavage, 45 µg/kg, together with: BaP 100 µg/kg).
